Measurements pooled from the literature.
Parts stem from different laboratories: compare values within a part only. “And” joins repeats or separate records; there may be more than shown.
UniProt Q52WX2, sequence (whole entry, looked up): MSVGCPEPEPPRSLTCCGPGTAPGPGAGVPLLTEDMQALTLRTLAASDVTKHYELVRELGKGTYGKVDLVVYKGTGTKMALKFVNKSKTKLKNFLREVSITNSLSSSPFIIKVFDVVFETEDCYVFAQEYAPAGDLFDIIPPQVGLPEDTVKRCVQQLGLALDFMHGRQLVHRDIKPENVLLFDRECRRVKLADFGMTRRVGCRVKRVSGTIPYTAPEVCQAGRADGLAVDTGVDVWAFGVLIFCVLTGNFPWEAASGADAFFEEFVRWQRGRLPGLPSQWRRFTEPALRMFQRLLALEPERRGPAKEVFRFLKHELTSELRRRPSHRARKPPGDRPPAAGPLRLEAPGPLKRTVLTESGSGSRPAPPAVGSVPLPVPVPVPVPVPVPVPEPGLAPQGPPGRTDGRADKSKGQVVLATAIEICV
UniProt Q9H0K1, sequence (whole entry, looked up): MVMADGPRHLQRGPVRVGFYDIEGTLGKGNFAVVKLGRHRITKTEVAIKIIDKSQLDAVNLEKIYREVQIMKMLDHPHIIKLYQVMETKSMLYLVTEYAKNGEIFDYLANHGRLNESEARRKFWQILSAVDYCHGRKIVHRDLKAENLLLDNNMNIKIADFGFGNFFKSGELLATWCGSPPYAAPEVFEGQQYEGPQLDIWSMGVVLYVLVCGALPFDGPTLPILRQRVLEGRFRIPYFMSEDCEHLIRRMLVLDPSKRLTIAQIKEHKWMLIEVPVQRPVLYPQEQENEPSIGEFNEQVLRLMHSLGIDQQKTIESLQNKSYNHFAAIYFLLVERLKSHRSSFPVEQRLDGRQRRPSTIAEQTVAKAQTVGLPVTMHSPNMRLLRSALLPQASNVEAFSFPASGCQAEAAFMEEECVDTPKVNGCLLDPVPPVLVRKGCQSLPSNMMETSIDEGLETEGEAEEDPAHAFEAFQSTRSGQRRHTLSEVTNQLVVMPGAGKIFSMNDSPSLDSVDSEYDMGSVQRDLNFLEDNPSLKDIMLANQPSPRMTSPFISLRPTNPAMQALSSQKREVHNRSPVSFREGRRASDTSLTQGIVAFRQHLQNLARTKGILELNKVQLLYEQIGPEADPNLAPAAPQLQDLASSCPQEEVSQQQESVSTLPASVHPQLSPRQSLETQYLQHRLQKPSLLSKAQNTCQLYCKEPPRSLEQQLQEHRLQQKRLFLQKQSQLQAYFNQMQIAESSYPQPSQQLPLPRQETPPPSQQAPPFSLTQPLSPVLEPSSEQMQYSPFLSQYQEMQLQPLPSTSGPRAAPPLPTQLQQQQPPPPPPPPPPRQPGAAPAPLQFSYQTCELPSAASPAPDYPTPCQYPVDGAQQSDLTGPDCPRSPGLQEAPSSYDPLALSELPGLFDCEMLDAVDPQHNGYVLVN
UniProt O00329, sequence (whole entry, looked up): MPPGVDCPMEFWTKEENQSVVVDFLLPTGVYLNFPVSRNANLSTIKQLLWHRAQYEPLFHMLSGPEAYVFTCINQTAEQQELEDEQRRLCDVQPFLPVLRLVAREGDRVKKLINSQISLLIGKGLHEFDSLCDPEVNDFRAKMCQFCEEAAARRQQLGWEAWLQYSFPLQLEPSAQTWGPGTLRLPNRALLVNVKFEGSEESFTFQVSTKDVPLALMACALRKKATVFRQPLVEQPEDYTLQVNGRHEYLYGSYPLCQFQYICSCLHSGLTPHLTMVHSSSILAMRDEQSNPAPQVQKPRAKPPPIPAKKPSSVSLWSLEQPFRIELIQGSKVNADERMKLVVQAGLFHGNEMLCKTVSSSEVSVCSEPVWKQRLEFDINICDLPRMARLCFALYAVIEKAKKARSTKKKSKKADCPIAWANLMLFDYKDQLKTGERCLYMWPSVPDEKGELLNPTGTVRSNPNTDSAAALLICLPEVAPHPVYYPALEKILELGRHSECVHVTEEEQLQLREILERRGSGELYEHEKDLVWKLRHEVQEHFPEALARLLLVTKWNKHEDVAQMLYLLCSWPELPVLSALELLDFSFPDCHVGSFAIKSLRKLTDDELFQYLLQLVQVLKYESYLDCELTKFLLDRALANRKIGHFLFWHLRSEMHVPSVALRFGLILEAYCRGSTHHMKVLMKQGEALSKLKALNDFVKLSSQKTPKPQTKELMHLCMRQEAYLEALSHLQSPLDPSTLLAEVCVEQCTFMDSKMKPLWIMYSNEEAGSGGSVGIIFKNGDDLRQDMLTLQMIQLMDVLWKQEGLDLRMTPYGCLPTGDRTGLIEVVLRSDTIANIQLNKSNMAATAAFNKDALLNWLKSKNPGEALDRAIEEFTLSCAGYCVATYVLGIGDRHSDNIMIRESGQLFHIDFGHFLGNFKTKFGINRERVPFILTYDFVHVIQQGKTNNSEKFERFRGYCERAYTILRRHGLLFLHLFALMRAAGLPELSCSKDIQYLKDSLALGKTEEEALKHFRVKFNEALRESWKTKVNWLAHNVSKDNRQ
UniProt O14730, sequence (whole entry, looked up): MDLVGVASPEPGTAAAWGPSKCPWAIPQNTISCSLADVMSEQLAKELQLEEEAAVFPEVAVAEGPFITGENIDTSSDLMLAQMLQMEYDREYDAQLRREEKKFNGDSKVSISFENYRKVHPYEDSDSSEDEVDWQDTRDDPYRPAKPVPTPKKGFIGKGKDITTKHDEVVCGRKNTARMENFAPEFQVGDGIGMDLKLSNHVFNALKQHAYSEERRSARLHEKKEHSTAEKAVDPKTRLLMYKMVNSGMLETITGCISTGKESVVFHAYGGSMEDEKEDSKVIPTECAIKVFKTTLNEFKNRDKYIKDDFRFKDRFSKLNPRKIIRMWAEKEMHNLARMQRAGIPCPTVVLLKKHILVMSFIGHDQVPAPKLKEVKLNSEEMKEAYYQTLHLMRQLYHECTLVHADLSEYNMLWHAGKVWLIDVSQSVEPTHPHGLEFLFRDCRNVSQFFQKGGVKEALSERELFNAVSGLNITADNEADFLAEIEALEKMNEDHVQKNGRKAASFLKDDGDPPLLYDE

Study 1
Compound: CNc1ncc2cc(-c3cc(OC)cc(OC)c3Cl)c(=O)n(CCc3ccc(NC(=O)C(C#N)=CC(C)(C)N4CCOCC4)cc3)c2n1
Read-out: kinase activity
Quantity: inhibition
PRKD1 (Homo sapiens, UniProt Q15139); 1 µM: 0%
GRK7 (Homo sapiens, UniProt Q8WTQ7); 1 µM: -13%
BMX (Homo sapiens, UniProt P51813); 0.1 µM: -2%
MAPK11 (Homo sapiens, UniProt Q15759); 0.1 µM: -1%
PAK3 (Homo sapiens, UniProt O75914); 0.1 µM: -2%
AKT2 (Homo sapiens, UniProt P31751); 1 µM: 4%
PRKACA (Homo sapiens, UniProt P17612); 1 µM: -5%
CAMK4 (Homo sapiens, UniProt Q16566); 1 µM: 5%
STK25 (Homo sapiens, UniProt O00506); 0.1 µM: 2%
PHKG2 (Homo sapiens, UniProt P15735); 1 µM: -1%
PRKCZ (Homo sapiens, UniProt Q05513); 0.1 µM: -5%
SIK2 (Homo sapiens, UniProt Q9H0K1); 1 µM: 6%
LRRK2 (Homo sapiens, UniProt Q5S007, G2019S); 0.1 µM: -3%
RPS6KA3 (Homo sapiens, UniProt P51812); 1 µM: 2%

Study 2
SMILES: CCN1/C(=C/C=C2\CCCC(/C=C/C3=[N+](CC)c4ccccc4C3(C)C)=C2NCCCCCCCCN2CCC(Nc3nc4ccccc4n3Cc3ccc(F)cc3)CC2)C(C)(C)c2ccccc21
Cell line: U-87 MG
Concentration: concentration not given
Reference: DMSO
Quantity: log2 fold change
item: CDKN2D mRNA: -1.05
item: FHOD1 mRNA: -2.47
item: ATP13A3 mRNA: 1.32
item: DBF4B mRNA: -1.59
item: NCAPG2 mRNA: -1.48
item: FAM210A mRNA: 1.19
item: ZXDA mRNA: 1
item: ZMYM3 mRNA: -1.26
item: KCNA7 mRNA: -2.15
item: TWIST1 mRNA: -1.16
item: CCN5 mRNA: -3.84

Study 3
Structure (SMILES): CC(C)=CCN1C(=O)C(O)(C(=O)O)Oc2cc(F)ccc21 (centres unmarked)
Organism: Arabidopsis thaliana
Strain: Col-0
Quantity: hypocotyl length
50 µg/mL, seed germination, repetition mean: 1.82 cm
3.125 µg/mL, seed germination, single repetition: 2.12 cm and 2.1 cm and 2.11 cm
25 µg/mL, seed germination, repetition mean: 1.84 cm
12.5 µg/mL, seed germination, single repetition: 2.01 cm and 1.95 cm and 1.98 cm and 2.05 cm and 2.03 cm
12.5 µg/mL, seed germination, repetition mean: 2 cm
50 µg/mL, seed germination, single repetition: 1.84 cm and 1.83 cm and 1.8 cm and 1.82 cm
6.25 µg/mL, seed germination, repetition mean: 2.01 cm
6.25 µg/mL, seed germination, single repetition: 1.98 cm and 2.06 cm and 2 cm and 2.01 cm and 2.05 cm
3.125 µg/mL, seed germination, repetition mean: 2.12 cm

Study 4
SMILES: Cc1ccc(O)c(C)c1-c1cnc2[nH]c(-c3cnc(N4CCC(CCN5CCN(c6ccc7c(c6)C(=O)N(C6CCC(=O)NC6=O)C7=O)CC5)CC4)nc3)cc2c1C#N (racemic)
Cell line: HCC1569
Method: in-cell western
Item: CDK1 phospho-Thr14
Quantity: pCDK1 (Thr14) level
4.12 nM: 11.3 RLU and 19.9 RLU
111.11 nM: 36.4 RLU and 37.7 RLU
37.04 nM: 27.2 RLU and 25.3 RLU
333.33 nM: 69.4 RLU and 70.6 RLU

Study 5
SMILES: CC[C@@]1(c2cccc(-c3c(F)cncc3OC)c2)C2=C(Nc3n[nH]cc31)[C@H](F)C(C)(C)CC2=O (single isomer, unassigned)
Concentration: 1 µM
Quantity: remaining binding
STK36 (Homo sapiens, UniProt Q9NRP7); binding, competition with immobilised ligand: 100%
SBK1 (Homo sapiens, UniProt Q52WX2); binding, competition with immobilised ligand: 72%
TNIK (Homo sapiens, UniProt Q9UKE5); binding, competition with immobilised ligand: 63%
RIOK3 (Homo sapiens, UniProt O14730); binding, competition with immobilised ligand: 70%
MAP3K19 (Homo sapiens, UniProt Q56UN5); binding, competition with immobilised ligand: 60%
FLT3 (Homo sapiens, UniProt P36888, D835Y); kinase binding, KINOMEscan; reference: DMSO control: 99%
FGFR3 (Homo sapiens, UniProt P22607, G697C); kinase binding, KINOMEscan; reference: DMSO control: 100%
PIK3CD (Homo sapiens, UniProt O00329); binding, competition with immobilised ligand: 100%
SYK (Homo sapiens, UniProt P43405); binding, competition with immobilised ligand: 98%
HIPK2 (Homo sapiens, UniProt Q9H2X6); binding, competition with immobilised ligand: 65%
BUB1 (Homo sapiens, UniProt O43683); kinase binding, KINOMEscan; reference: DMSO control: 64%
ROS1 (Homo sapiens, UniProt P08922); binding, competition with immobilised ligand: 78%

Study 6
Target: Sodium-dependent neutral amino acid transporter B(0)AT1 (SLC6A19, Homo sapiens, UniProt Q695T7)
UniProt Q695T7, sequence (whole entry, looked up): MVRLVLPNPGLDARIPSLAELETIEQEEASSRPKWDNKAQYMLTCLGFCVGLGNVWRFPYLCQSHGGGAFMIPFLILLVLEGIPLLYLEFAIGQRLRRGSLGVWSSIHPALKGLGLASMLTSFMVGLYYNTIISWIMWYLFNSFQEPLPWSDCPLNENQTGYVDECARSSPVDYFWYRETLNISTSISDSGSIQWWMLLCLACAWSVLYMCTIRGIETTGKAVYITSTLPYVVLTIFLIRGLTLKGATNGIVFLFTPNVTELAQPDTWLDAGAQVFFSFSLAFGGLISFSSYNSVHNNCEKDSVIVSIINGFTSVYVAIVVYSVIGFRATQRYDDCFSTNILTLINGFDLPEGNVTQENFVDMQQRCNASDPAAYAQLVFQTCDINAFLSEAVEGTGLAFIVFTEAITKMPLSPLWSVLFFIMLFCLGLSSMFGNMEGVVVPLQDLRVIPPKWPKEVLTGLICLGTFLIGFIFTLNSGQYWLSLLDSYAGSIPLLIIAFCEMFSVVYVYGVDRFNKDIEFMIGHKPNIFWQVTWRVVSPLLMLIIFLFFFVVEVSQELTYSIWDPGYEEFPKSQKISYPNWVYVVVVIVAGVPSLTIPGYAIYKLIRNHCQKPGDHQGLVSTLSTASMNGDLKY
Mode: inhibitor
Method: L-[14C]leucine uptake
Cells: CHO-BC cells
Concentration: 0.03 µM
Time: 6 min
Temperature: 37 °C
Notes: unit not given
Together with: GPNA 3 mM, JPH203 3 µM
Reference: uninhibited cells
Quantity: remaining transport activity
CCNC(=O)COc1ccc(Br)c(C)c1: 1.03
Cc1cc(NCC(=O)NC(C)C)ccc1Br: 0.914
CCNC(=O)COc1ccc(I)c(C)c1: 0.92

Study 7
Compound: NC/C(=C\F)COc1cccc(Cn2c(=S)[nH]c(=O)c3[nH]ccc32)c1
Read-out: enzyme activity
Mode: inhibitor
Method: fluorescence
Quantity: inhibition
MPO: Myeloperoxidase (MPO, Homo sapiens, UniProt P05164)
UniProt P05164, sequence (whole entry, looked up): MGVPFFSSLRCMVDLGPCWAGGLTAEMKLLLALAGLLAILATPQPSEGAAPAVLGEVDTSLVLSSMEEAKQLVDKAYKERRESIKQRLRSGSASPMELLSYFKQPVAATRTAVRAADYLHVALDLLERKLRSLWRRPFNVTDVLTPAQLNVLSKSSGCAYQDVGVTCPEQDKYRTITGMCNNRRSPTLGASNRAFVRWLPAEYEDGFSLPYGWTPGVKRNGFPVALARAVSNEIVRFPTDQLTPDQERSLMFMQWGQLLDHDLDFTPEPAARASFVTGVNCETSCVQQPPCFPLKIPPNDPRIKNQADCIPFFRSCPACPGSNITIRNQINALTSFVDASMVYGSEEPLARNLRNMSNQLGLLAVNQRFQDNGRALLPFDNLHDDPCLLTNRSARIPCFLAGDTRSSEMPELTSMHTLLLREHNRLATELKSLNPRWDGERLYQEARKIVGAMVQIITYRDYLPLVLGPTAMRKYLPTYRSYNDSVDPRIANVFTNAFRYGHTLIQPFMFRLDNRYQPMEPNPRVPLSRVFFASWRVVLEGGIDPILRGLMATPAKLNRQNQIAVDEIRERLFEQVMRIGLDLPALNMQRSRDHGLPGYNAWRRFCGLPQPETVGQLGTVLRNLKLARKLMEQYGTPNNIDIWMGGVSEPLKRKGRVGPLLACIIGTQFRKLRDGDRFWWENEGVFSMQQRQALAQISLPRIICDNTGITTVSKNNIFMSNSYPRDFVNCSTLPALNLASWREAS
AOC3: Amine oxidase [copper-containing] 3 (AOC3, Homo sapiens, UniProt Q16853)
UniProt Q16853, sequence (whole entry, looked up): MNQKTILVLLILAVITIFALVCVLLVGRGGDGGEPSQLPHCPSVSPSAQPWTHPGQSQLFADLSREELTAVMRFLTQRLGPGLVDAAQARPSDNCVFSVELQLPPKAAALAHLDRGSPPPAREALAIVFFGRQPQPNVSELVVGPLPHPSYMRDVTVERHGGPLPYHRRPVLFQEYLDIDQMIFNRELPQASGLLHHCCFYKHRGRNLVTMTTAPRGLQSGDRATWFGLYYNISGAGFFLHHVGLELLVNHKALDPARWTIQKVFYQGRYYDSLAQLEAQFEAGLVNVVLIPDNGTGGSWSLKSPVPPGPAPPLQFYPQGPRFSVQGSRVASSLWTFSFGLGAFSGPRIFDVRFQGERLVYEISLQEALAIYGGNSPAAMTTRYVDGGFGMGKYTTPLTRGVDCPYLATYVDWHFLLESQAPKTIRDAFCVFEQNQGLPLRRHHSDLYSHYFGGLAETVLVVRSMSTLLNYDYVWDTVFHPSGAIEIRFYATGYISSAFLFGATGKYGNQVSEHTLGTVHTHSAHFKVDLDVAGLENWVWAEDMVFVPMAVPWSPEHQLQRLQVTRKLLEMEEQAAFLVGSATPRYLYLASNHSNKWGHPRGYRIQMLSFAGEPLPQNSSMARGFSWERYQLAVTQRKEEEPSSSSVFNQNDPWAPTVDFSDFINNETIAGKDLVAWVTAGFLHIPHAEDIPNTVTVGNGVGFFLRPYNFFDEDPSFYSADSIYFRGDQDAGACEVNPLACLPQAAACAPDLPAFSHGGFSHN
MPO; 4.6 nM: 30.4% and 23% and 24.6%
AOC3; 10 µM: 100% and 99.2% and 101% and 99.9%
MPO; 5 µM: 100% and 99.4% and 99%
AOC3; 30 µM: 100% and 99.9% and 99.1% and 99.8% and 99.4%
MPO; 300 pM: -2.1% and 2.01% and 3.64%
MPO; 0.1235 µM: 91.8% and 94.3% and 94.4%
MPO; 30 µM: 100% and 99.8%
MPO; 15 µM: 99.6% and 99.7% and 100%

Single results of other studies
Cc1nc(C)c(C=[N+]([O-])C(C)(C)C)nc1C — oxygen consumption rate (PC-12; Seahorse; 100 µM, 52.67 min, pretreatment 0.8778 h, together with: MPP+): 798 pmol/min and 656 pmol/min and 735 pmol/min and 752 pmol/min and 684 pmol/min

Excerpt of the above (study 3):
12.5 µg/mL, seed germination, single repetition: 2.01 cm and 1.95 cm and 1.98 cm and 2.05 cm and 2.03 cm
12.5 µg/mL, seed germination, repetition mean: 2 cm
50 µg/mL, seed germination, single repetition: 1.84 cm and 1.83 cm and 1.8 cm and 1.82 cm
6.25 µg/mL, seed germination, repetition mean: 2.01 cm
